Assay results gathered from unrelated publications.
Lines come from different studies, so protocols differ. Several values in a cell are separate wells, animals, samples, runs or records. ± gives the spread as reported.
Genome polyprotein NS3 helicase domain: Genome polyprotein, NS3 helicase domain (Hepatitis C virus genotype 1b, UniProt Q9WMX2)
Glutamate receptor 2: Glutamate receptor 2 (Homo sapiens, UniProt P42262)
ESR1: Estrogen receptor (ESR1, Homo sapiens, UniProt P03372)
WD repeat-containing protein 91 WD40 domain, residues 392–747: WD repeat-containing protein 91, WD40 domain, residues 392–747 (Homo sapiens, UniProt A4D1P6)
T1: riboswitch RNA yjdF aptamer (Bacillus subtilis); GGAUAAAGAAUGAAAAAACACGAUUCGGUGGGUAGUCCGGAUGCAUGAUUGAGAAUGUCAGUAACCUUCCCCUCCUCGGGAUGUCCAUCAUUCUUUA

`O=[N+]([O-])c1cc(C(F)(F)F)ccc1NCc1ccsc1` gave a TΔS of 1.25 ± 0.08 kcal/mol (Endothelial PAS domain-containing protein 1, PAS-B domain (EPAS1, Homo sapiens, UniProt Q99814, N288A); binding, ITC, reverse mode).
`Cc1cc2nc3[nH]c(=O)[nH]c(=O)c3nc2cc1C` has a Kd of 9 µM (T1, riboswitch RNA yjdF aptamer (Bacillus subtilis); fluorescence titration; with: 380 nM lumichrome).
The inhibition of `CN(C)C/C=C(/c1ccc(Br)cc1)c1cccnc1` is reported as 1% (Genome polyprotein NS3 helicase domain; DNA binding, inhibitor; hepatitis C virus; 100 µM, with: Cy5-dT15 DNA).
With `CCCN1C[C@H](CSC)C[C@@H]2c3cccc4[nH]cc(c34)C[C@H]21` the potentiation was 99% (Glutamate receptor 2; ion current, positive allosteric modulator, SyncroPatch patch clamp; HEK293; 30 µM).
With `O=C(COP(=O)(O)O)[C@@H](O)[C@H](O)[C@H](O)COP(=O)(O)O` the enzyme activity was 3.83 and 3.51 and 3.11 (Phosphoglycerate mutase 1 (Homo sapiens, UniProt P18669); activator; 0.625 mM, wild-type enzyme, unit not given; relative to no compound).
For `O=c1c(O)c(-c2cc(O)c(O)c(O)c2)oc2cc(O)cc(O)c12`, the selectivity ratio was 5.16 (ESR1; array formation; PRL-HeLa; relative to: EC50 ERβ over EC50 ERα).
`O=P(O)(O)O[C@H]1[C@H](OP(=O)(O)O)[C@@H](OP(=O)(O)O)[C@H](OP(=O)(O)O)[C@@H](OP(=O)(O)O)[C@H]1OP(=O)(O)O` has an activation concentration of 10 nM (Histone deacetylase 3 (HDAC3, Homo sapiens, UniProt O15379); deacetylase activity, activator, fluorogenic).
`Cc1nc2c(OCc3ccccc3)cccn2c1CC#N` has an inhibition of 1% (Genome polyprotein NS3 helicase domain; DNA binding, inhibitor; hepatitis C virus; 100 µM, with: Cy5-dT15 DNA).
`CCC(=O)NS(=O)(=O)c1ccc(-c2c(-c3ccccc3)noc2C)cc1` gave an activation of 0.37 fold (Nuclear receptor subfamily 4 group A member 3, ligand-binding domain (Homo sapiens, UniProt Q92570); reporter gene, Gal4 hybrid reporter; 50 µM; relative to: vehicle).
For `CC(C)C[C@H](N)C(=O)O`, the product formation was 2.23 µM (N-alpha-acetyltransferase 80 (NAA80, Homo sapiens, UniProt Q93015); substrate, DTNB; 2 mM, 30 min, 37 °C, with: acetyl-CoA 500 µM).
With `CCCCN1/C(=C/C=C(Br)/C=C/C2=[N+](CCCC)c3ccc(Br)cc3C2(C)C)C(C)(C)c2cc(Br)ccc21.[I-]` the Hill coefficient was 1.67 (Protein arginine N-methyltransferase 3 (PRMT3, Homo sapiens, UniProt O60678); inhibitor, filter binding; with: R4 peptide substrate).
`CC[C@H](NC(=O)c1c(C)c(-c2ccccc2)nc2ccccc12)c1ccccc1` gave an inhibition of 1% (Genome polyprotein NS3 helicase domain; DNA binding, inhibitor; hepatitis C virus; 100 µM, with: Cy5-dT15 DNA).
Under “fraction of accessible fluorescence”, `CCS(=O)(=O)N1CC(CC#N)(n2cc(-c3ncnc4[nH]ccc34)cn2)C1` is recorded as 0.53 (Alpha-1-acid glycoprotein 1 (ORM1, Homo sapiens, UniProt P02763); modified Stern-Volmer; 293 K).
The ΔΔG of `CC[C@H](C)[C@H](NC(=O)[C@H](CCCCN)NC(=O)CNC(=O)[C@@H](NC(=O)[C@@H](NC(=O)[C@H](CCSC)NC(=O)[C@H](Cc1c[nH]cn1)NC(=O)CN)[C@@H](C)O)C(C)C)C(=O)N[C@@H](Cc1ccc(O)cc1)C(=O)N[C@@H](C)C(=O)N[C@@H](C)C(=O)N[C@@H](CCSC)C(=O)N[C@@H](CCSC)C(=O)N[C@H](C(=O)N[C@@H](CCSC)C(=O)N[C@@H](CCC(=O)O)C(=O)N[C@@H](Cc1ccc(O)cc1)C(=O)N[C@@H](C)C(=O)N[C@@H](CCCNC(=N)N)C(=O)N[C@@H](CCC(N)=O)C(=O)N[C@@H](CO)C(=O)N[C@@H](CCCCN)C(=O)N[C@@H](C)C(=O)N[C@@H](CCCCN)C(=O)N[C@@H](CCCCN)C(=O)N[C@@H](CC(C)C)C(=O)N[C@@H](CCC(N)=O)C(=O)N[C@@H](C)C(=O)N[C@@H](CCSC)C(=O)N[C@@H](CCCNC(=N)N)C(=O)O)[C@@H](C)CC` is reported as 0.46 (Calmodulin-1, Ca2+-bound N-lobe (CALM1, Homo sapiens, UniProt P0DP23); binding, isothermal titration calorimetry; N-lobe, CaV2.1 IQ domain, unit not given, with: Ca2+; relative to: wild-type IQ domain).
`CCC1(c2ccccc2)C(=O)NCNC1=O` has an inhibition of 1% (Genome polyprotein NS3 helicase domain; DNA binding, inhibitor; hepatitis C virus; 100 µM, with: Cy5-dT15 DNA).
The ΔTm of `CN1CCC2(CC1)NC(=O)c1c(c3ccc(Cl)c(Cl)c3n1C)C2C#N` (racemic) is reported as -1 °C (Serine/threonine-protein kinase MRCK gamma (CDC42BPG, Homo sapiens, UniProt Q6DT37); thermal shift; 10 µM, 2 µM protein; higher = stronger binding).
`[O-][S+]1CCCCS1` (stereo not drawn) gave a target engagement of 53.1% (Superoxide dismutase [Cu-Zn] (SOD1, Homo sapiens, UniProt P00441, G94A); intact protein LC-MS; SOD1 G93A transgenic mice, whole blood; intravenous, 10 mg/kg, 4 h, mean of two mice).
For `O=C(c1ccc(C(=O)N2CCC(N3CCCC3)CC2)c(Nc2ccccc2)c1)N1CCC(N2CCCC2)CC1`, the diffusion coefficient was 0.0503 µm2/s (Lethal(3)malignant brain tumor-like protein 3 (Homo sapiens, UniProt Q96JM7); FRAP; human cells; 0.5 µM).
The inhibition of `NC(CO)C(=O)NNCc1ccc(O)c(O)c1O` (stereo not drawn) is reported as 1% (Genome polyprotein NS3 helicase domain; DNA binding, inhibitor; hepatitis C virus; 100 µM, with: Cy5-dT15 DNA).
For `C=CC(=O)N1CCN(c2nc(OC[C@@H]3CCCN3C)nc3c(F)c(-c4nc(N)cc(C)c4C(F)(F)F)c(Cl)cc23)[C@@H](C)C1`, “association rate constant” read 142000 ± 3800 M⁻¹ s⁻¹ (GTPase KRas, GDP-bound (KRAS, Homo sapiens, UniProt P01116, G13D); binding, surface plasmon resonance).
`NC(=O)[C@@H]1CN(C(=O)c2cc3cccn3cn2)C[C@H]1c1ccccc1` gave an SPR response of -6.7 RU and -2.1 RU (WD repeat-containing protein 91 WD40 domain, residues 392–747; binding, SPR single-concentration screen; 45 µM).
With `O=C(CCCCCCC(=O)Nc1ccccc1)NO` the TΔS was 5.2 kcal/mol (Histone deacetylase 8 (HDAC8, Homo sapiens, UniProt Q9BY41); ITC; phosphate buffer; pH 7.5).
For `CC12CC3CC(C)(C1)CC(N)(C3)C2`, the potentiation was 84% (Glutamate receptor 2; ion current, positive allosteric modulator, SyncroPatch patch clamp; HEK293; 10 µM).
For `N=C(NC1CCN(c2ncnc3c2nc(-c2ccccc2Cl)n3-c2ccc(Cl)cc2)CC1)c1ccc(F)cc1`, the selectivity ratio was greater than 7 (Cannabinoid receptor 1 (CNR1, Homo sapiens, UniProt P21554); binding, [3H]CP55940 displacement; relative to: Ki CB2 over Ki CB1).
`CC(=O)N[C@H](C(=O)N1C[C@H](O)C[C@H]1C(=O)NCc1ccc(-c2scnc2C)cc1)C(C)(C)SCCCCCCNC(=O)C[C@@H]1N=C(c2ccc(Cl)cc2)c2c(sc(C)c2C)-n2c(C)nnc21` gave a ΔH of -2.2 ± 0.3 kcal/mol (BRD4/VHL, BD1; with elongins B/C (Homo sapiens, UniProt O60885+P40337); ternary complex binding, ITC; 25 °C, with: VHL-ElonginB-ElonginC titrated into compound:PROTAC:Brd4^BD1 complex).
For `Cc1cccc(N2CC(C(=O)O)CC2=O)c1` (stereo not drawn), the fold enrichment was 0.716 (Transducin-like enhancer protein 4 (TLE4, Homo sapiens, UniProt Q04727); binding, affinity selection mass spectrometry; relative to: other proteins in batch).
With `Nc1ncnc2c1ncn2[C@@H]1O[C@H](COP(=O)(O)CP(=O)(O)OP(=O)(O)O)[C@@H](O)[C@H]1O` the specific binding was 78.5 CCPM and 82 CCPM and 62 CCPM (P2X purinoceptor 1 (P2RX1, Homo sapiens, UniProt P51575, D170A); saturation binding; HEK293; 13 nM).
With `Nc1nc2c(ncn2[C@@H]2O[C@H](COP(=O)(O)O)[C@@H](O)[C@H]2O)c(=O)[nH]1` the reaction rate was 4.54 s⁻¹ and 2 s⁻¹ and 2.93 s⁻¹ (GUK1 (Homo sapiens, UniProt Q16774, Y53A); enzyme activity, NADH-coupled; 250 µM).
`Nc1ncnc2c1ncn2[C@@H]1O[C@H](C[C@@H](N)CC[C@H](N)C(=O)O)[C@@H](O)[C@H]1O` — result for “ΔH of binding”: -3.17 ± 0.119 kcal/mol (O-methyltransferase (Sorghum bicolor, UniProt A0A1B6PFV1); concentration not given, with: RSV+).
With `OC[C@H]1O[C@H]([S-])[C@H](O)[C@@H](O)[C@@H]1O.[Au+]` the inhibition was 36% (Genome polyprotein NS3 helicase domain; DNA binding, inhibitor; hepatitis C virus; 100 µM, with: Cy5-dT15 DNA).
`COc1cc(/C=C/c2cc(/C=C/c3ccc(O)c(OC)c3)n(-c3cccc([N+](=O)[O-])c3)n2)ccc1O` gave a binding stoichiometry of 0.55 ± 0.17 (haemin; isothermal titration calorimetry; concentration not given, pH 7.4, 37 °C).
`CN1C(=O)C(c2c(-c3ccc(Cl)cc3)[nH]c3c2c(=O)[nH]c(=O)n3C)c2ccccc21` (stereo not drawn) has an SPR response of 22.2 RU (WD repeat-containing protein 91 (Homo sapiens, UniProt A4D1P6); binding, SPR steady state; 3.75 µM).
`CC[C@H](C)[C@H](NC(=O)[C@H](CCSC)NC(=O)[C@H](CCSC)NC(=O)[C@H](C)NC(=O)[C@H](C)NC(=O)[C@H](Cc1ccc(O)cc1)NC(=O)[C@H](C)NC(=O)[C@H](CCCCN)NC(=O)CNC(=O)[C@@H](NC(=O)[C@@H](NC(=O)[C@H](CCSC)NC(=O)[C@H](Cc1c[nH]cn1)NC(=O)CN)[C@@H](C)O)C(C)C)C(=O)N[C@@H](CCSC)C(=O)N[C@@H](CCC(=O)O)C(=O)N[C@@H](Cc1ccc(O)cc1)C(=O)N[C@@H](Cc1ccc(O)cc1)C(=O)N[C@@H](CCCNC(=N)N)C(=O)N[C@@H](CCC(N)=O)C(=O)N[C@@H](CO)C(=O)N[C@@H](CCCCN)C(=O)N[C@@H](C)C(=O)N[C@@H](CCCCN)C(=O)N[C@@H](CCCCN)C(=O)N[C@@H](CC(C)C)C(=O)N[C@@H](CCC(N)=O)C(=O)N[C@@H](C)C(=O)N[C@@H](CCSC)C(=O)N[C@@H](CCCNC(=N)N)C(=O)O` has a ΔH of -4.64 ± 0.03 kcal/mol (Calmodulin-1, Ca2+-bound C-lobe (CALM1, Homo sapiens, UniProt P0DP23); binding, isothermal titration calorimetry; pH 7.4, 15 °C, C-lobe, CaV2.1 IQ domain, with: Ca2+).
`Nc1ccc(C(=O)O)cc1` gave a current density of -19.1 pA/pF and -5.56 pA/pF and -3.92 pA/pF and -8.21 pA/pF and -11.7 pA/pF and -11 pA/pF (BEST1, with wild-type BEST1 (Homo sapiens, UniProt O76090, A10T); whole-cell patch clamp; HEK293 co-expressing WT and A10T mutant; concentration not given, membrane potential -40 mV).
Under “mean relaxed DNA”, `O=c1nc(SCc2cc(F)cc(C(F)(F)F)c2)nc(SCc2ccc3sccc3c2)[nH]1` is recorded as 98.7% (DNA topoisomerase 2-alpha (TOP2A, Homo sapiens, UniProt P11388); DNA relaxation; 7.8 µM).
With `COC1=C(OC)C(=O)C(CC=C(C)C)=C(C)C1=O` the Km was 16.2 ± 4.23 µM (FSP1 L323A mutant; substrate; with: 100 µM co-substrate).
`O=C(c1cc2cccn2cn1)N1CCN(C(=O)c2ccoc2)C(c2ccc(F)cc2)C1` (stereo not drawn) gave a binding of -19% and -2% (WD repeat-containing protein 91 WD40 domain, residues 392–747; SPR; 45 µM).
The remaining activity of `C=CC(=O)N1CCC[C@@H](n2nc(-c3ccc(Oc4ccccc4)cc3)c3c(N)ncnc32)C1` is reported as 66.9% (Tyrosine-protein kinase Srms (SRMS, Homo sapiens, UniProt Q9H3Y6); 0.1 µM).
`COC(=O)[C@@H]1CCCN1Cc1cn(-c2ccc(C(=O)N3CCC(C#N)CC3)cc2)nn1` has a binding of 2% and -7% (WD repeat-containing protein 91 WD40 domain, residues 392–747; SPR; 45 µM).
`CC(=O)N[C@@H](CC(N)=O)C(=O)N[C@@H](CC(C)C)C(=O)NCC(=O)N[C@@H](CCCCN)C(=O)N[C@@H](Cc1c[nH]cn1)C(=O)N[C@@H](CCC(=O)O)C(=O)N[C@@H](CCCCN)C(=O)N[C@@H](Cc1ccccc1)C(=O)N[C@@H](CO)C(=O)N[C@@H](CCC(=O)O)C(=O)N[C@H](C(=O)N[C@@H](CC(C)C)C(=O)N[C@@H](CCCCN)C(=O)N[C@@H](CCCNC(=N)N)C(=O)N[C@@H](CC(C)C)C(=O)N[C@@H](CCCNC(=N)N)C(=O)N[C@@H](CC(C)C)C(=O)N[C@@H](CCC(N)=O)C(N)=O)C(C)C` has a binding stoichiometry of 1.01 (Calmodulin-1, C-lobe (CALM1, Homo sapiens, UniProt P0DP23); ITC; concentration not given, C-lobe, with: 1 mM CaCl2).
For `O=C(/C=C/c1ccc(O)cc1)c1ccc(O)cc1O`, the selectivity ratio was 2.68 (ESR1; array formation; PRL-HeLa; relative to: EC50 ERβ over EC50 ERα).
The SPR response of `CC(=O)c1cccc(OCc2cn(-c3ccc(C(=O)N4CCC(C#N)CC4)cc3)nn2)c1` is reported as 26.2 RU and 19.9 RU (WD repeat-containing protein 91 WD40 domain, residues 392–747; binding, SPR single-concentration screen; 45 µM).
